Assay results gathered from unrelated publications.
± marks the error that the study gave.

CC(C)c1ccc(N=Nc2ccc3[nH]cc(CCN(C)C)c3c2)cc1 — cis isomer at photostationary state (light irradiation; solution; added: light 385 nm): 80%
C1=Cc2nc1cc1ccc([n-]1)c(C1CC1)c1nc(cc3ccc([n-]3)c2C2CC2)C=C1.CC(=O)[O-].[Mn+3] — plasma concentration (LC-MS/MS; Sprague-Dawley rat, plasma; oral gavage, dose not given, 60 min, individual rat Rat1): 100 ng/mL
Clc1ccc(-c2ccccc2)cc1 — serum free thyroxine (Sprague-Dawley rat female, serum; inhalation, 35 µg/rat, 24 h): 35 ± 4 pmol/L
COc1ccnc(C(=O)N[C@H]2COC(=O)[C@H](Cc3ccccc3)[C@@H](OC(=O)C(C)C)[C@H](C)OC2=O)c1OCOC(=O)C(C)C — NOEC (Colinus virginianus; concentration not given, long-term toxicity): 12.1 mg/kg bw/day
COc1ccc2c(c1)CN(C(=O)CCN1CCC(Cc3ccccc3)CC1)CC[S@@+]2[O-] — QTcF prolongation (female beagle dogs, chronic AV block; intravenous, 3 mg/kg, 3 h; baseline: before dosing): 13 ms
O=C([O-])CN1CCN(CC(=O)[O-])CCN(CC(=O)NCC2CCC(C(=O)N[C@@H](Cc3ccc4ccccc4c3)C(=O)NCCCC[C@H](NC(=O)N[C@@H](CCC(=O)O)C(=O)O)C(=O)O)CC2)CCN(CC(=O)[O-])CC1.[177Lu+3] (stereo partly shown) — tumour uptake (ex vivo biodistribution; mouse 22Rv1 xenograft, tumour; 96 h post-injection): 1.12 ± 0.01 %ID/g
Cc1cc(C)c(CNC(=O)c2cc(Cl)c3c(c2C)O[C@@](C)([C@H]2CC[C@H](N(C)C)CC2)O3)c(=O)[nH]1 — incidence of muscle spasms (relapsed/refractory NHL patients; dose not given, trial, safety set, all TEAEs grade 5): 0%
COc1ccc([C@@H]2CC(=O)c3c(O)cc(O)cc3O2)cc1O — urinary excreted amount, total (male Sprague-Dawley rat, obese; oral, 100 mg/kg of neohesperidin, 0 to 12 h, after β-glucuronidase/sulfatase hydrolysis): 2730 ± 1600 ng
CN(C)C1(CNC(=O)c2ccc3c(c2)CCN3C(=O)c2ccccc2)CCOCC1 — brain concentration (male C57BL/6 mice; intraperitoneal, 50 mg/kg, 30 min): 550 ± 171 ng/g
Cc1cccc(Cn2nc(C3CC3)c3c(NC(=O)c4cnc5cc(OCCN6CCN(C)CC6)ccn45)cccc32)n1 — all-cause adverse events (CTCAE v4.03, item: abdominal pain; PD-1/PD-L1 inhibitor-refractory patients; oral, dose not given, added: pembrolizumab IV every 3 weeks): 21.1%
O=S(=O)(Nc1ccccc1)c1ccc(NC(=S)Nc2ccccc2)cc1 — blood cell fraction (item: NE%; female mouse, blood; oral, 20 mg/kg daily, 14 days): 11.7%
NCCCC[C@@H]1NC(=O)[C@@H](Cc2c[nH]c3ccccc23)NC(=O)[C@H](c2ccccc2)NC(=O)[C@@H]2C[C@@H](OC(=O)NCCN)CN2C(=O)[C@H](Cc2ccccc2)NC(=O)[C@H](Cc2ccc(OCc3ccccc3)cc2)NC1=O — QTcI change from baseline (healthy volunteers; subcutaneous, 1950 µg twice daily, day 5, 1.50 h): 10.4 ms
CCN1CCN(Cc2ccc(Nc3ncc(F)c(-c4cc(F)c5nc6n(c5c4)[C@H](C)CCC6)n3)nc2)CC1 — Hypercholesterolemia incidence, grade ≥3 (advanced solid tumour patients; dose not given, Phase Ia monotherapy): 0%
O[C@H]1CCCN[C@@H]1CCCn1cnc2c(Cl)c(Cl)ccc21 — Cmax,ss geometric LS mean (healthy volunteers, plasma; oral, 150 mg twice daily, added: pirfenidone 600 mg): 288 ng/mL
C=CC(=O)Nc1cc(Nc2nccc(Nc3cc(Cl)c(F)cc3C(C)(C)O)n2)c(OC)cc1N1CC[C@@H](N(C)C)C1 — decreased appetite TEAE (human; oral, dose not given): 31.4%
O=C(Nc1ccccc1)C1CCN(C(=O)Oc2cccnc2)CC1 — subjects with cold sweat (adverse event reporting; healthy women; oral, 20 mg, 7 days): 0%
COc1cc2c(Oc3ccc4[nH]c(C)cc4c3F)ccnc2cc1OCC1(N)CC1 — grade 1 or 2 sinus arrhythmia (paediatric recurrent refractory sarcoma; 10 mg): 0%
[O-][S+]1CCc2nc(N3CCC(c4ncc(Cl)cn4)CC3)nc(NC3(CO)CCC3)c21 (stereo not shown) — Diarrhoea adverse events (idiopathic pulmonary fibrosis patients; 18 mg twice daily): 40%
CC(=O)c1c(C)c2cnc(Nc3ccc(C4CCN(CCS(C)(=O)=O)CC4)cn3)nc2n(C2CCCC2)c1=O — Vd (human, plasma; oral, 75 mg twice daily, day 21, multiple doses, added: fulvestrant): 229 L
CC(C)(c1ccccc1)c1cc(-n2nc3ccccc3n2)c(O)c(C(C)(C)c2ccccc2)c1 — mean daily dermal uptake (exposure assessment; human, age 1-2 years; sunscreen): 0.77 ng/kg body weight/day
CCc1ccc(CC/C=C/c2ccc3c(c2)C(=O)CC3)cc1 — Reticulocyte percentage (Sprague-Dawley rat, female; oral, 30 mg/kg/day, 14 days): 2.65%
C[N+]1(C)[C@@H]2C[C@@H](OC(=O)C(O)(c3cccs3)c3cccs3)C[C@H]1[C@@H]1O[C@@H]12 — absorption rate constant (dog; oral): 0.2 h⁻¹
C[C@@H](NC(=O)N1C(=O)[C@H](Cc2ccnc(N)c2)[C@H]1C(=O)O)C1CCCCC1 — urine leukocyte-positive (healthy Chinese adults; continuous intravenous infusion, 1.0 mg/kg/h, 5.0 days): 0%
Fc1ccc([C@@H]2CCNC[C@H]2COc2ccc3c(c2)OCO3)cc1 — List of Complaints score (item: Shivering; healthy volunteers; oral, dose not given, given -1 h relative to LSD, added: LSD; direction not given): 0 score
Cc1ncnc2c1ccn2[C@@H]1C[C@H](Oc2cc(C(F)F)c(F)c3c2CNCC3)[C@@H](O)[C@H]1O — Vomiting incidence (patients; dose not given, any grade; baseline: patients): 6%
CC1(C)[C@H](C(=O)O[C@H](C#N)c2cccc(Oc3ccccc3)c2)[C@@H]1C=C(Br)Br — enzyme contribution to clearance (item: CYP2C19; human, age 1 year, recombinant human CYP2C19; 0.1 µM): 0.47%
COc1cc2c(cc1OC)CN(CCc1ccc(NC(=O)c3cccc4c(=O)c5cccc(OC)c5[nH]c34)cc1)CC2 — half-life (CD-1 mouse, male, lung; intraperitoneal, 10 mg/kg): 571 min
Cc1cc(NC2CCN(C(=O)OC3CCN(C(=O)/C=C/CN(C)C)C3)CC2)n2ncc(C(C)C)c2n1 (stereo not shown) — highest non-severely toxic dose (body surface area) (dog; oral, dose not given, daily for 4 weeks): 40 mg/m2
C[C@]1(CO)Cc2ncn(-c3ccc(C#N)c(Cl)c3)c2C(=O)O1 — tmax (human, Chinese, plasma; 3 mg single dose, median): 1 h
C[C@@H]1OC(=O)NN=C1c1ccc(-c2ccc(F)cc2)c(C(F)(F)F)c1 — patients with adverse event (phase I trial, item: Dyspnoea all grades; human patients; 5 mg once daily): 0%
CO[C@H]1C[C@@H]2CC[C@@H](C)[C@@](O)(O2)C(=O)C(=O)N2CCCC[C@H]2C(=O)O[C@H]([C@H](C)C[C@@H]2CC[C@@H](OC(=O)NCCOCCOCCOCCOCCOCCOCCOCCOCCC(=O)N3CCc4cc(Cn5nc(-c6ccc7oc(N)nc7c6)c6c(N)ncnc65)ccc4C3)[C@H](OC)C2)C[C@@H](O)[C@H](C)/C=C(\C)[C@@H](O)[C@@H](OC)C(=O)[C@H](C)C[C@H](C)/C=C/C=C/C=C/1C — dose-reducing adverse events (phase 1 dose escalation, item: mucositis; advanced solid tumour patients; intravenous, 8 mg weekly, any grade): 0%
CN1CC[C@@H](c2c(O)cc(O)c3c(=O)cc(-c4ccc(C(F)(F)F)cc4Cl)oc23)[C@@H]1CO — patients with adverse event (item: Sepsis; relapsed B-cell malignancies; oral, 200 mg, grade 3-4, intermittent dosing): 0%
CC(C)[C@@H]1NC(=O)CNC(=O)[C@H](CC(N)=O)NC(=O)[C@H](CCCNC(=N)N)NC(=O)[C@H](Cc2ccc(O)cc2)NC(=O)[C@H](C(C)C)NC(=O)[C@@H](NC(=O)[C@@H](NC(=O)[C@H](CC(N)=O)NC(=O)[C@H](Cc2c[nH]c3ccccc23)NC(=O)[C@H](C)NC(=O)[C@H](Cc2ccccc2)NC(=O)CN)C(C)C)CSSC[C@@H](C(=O)N[C@@H](Cc2cnc[nH]2)C(=O)N[C@@H](CCCNC(=N)N)C(=O)N[C@@H](CCCNC(=N)N)C(=O)N[C@@H](C)C(=O)N[C@@H](CC(N)=O)C(N)=O)NC(=O)[C@H](C(C)C)NC(=O)[C@H](CCCNC(=N)N)NC1=O — globulin (ICR mice, serum; intraperitoneal, 5 mg/kg, day 5): 19.2 ± 0.1 g/L
CC(C)CC(=O)OC[C@H]1O[C@@](C#N)(c2ccc3c(N)ncnn23)[C@H](O)[C@@H]1O — fraction bound (monkey plasma; 0.9 µM): 0.705
CC(C)(O)c1cc(Nc2cc(Oc3cn(C4CC4)nc3C3CCOCC3)ccn2)ccn1 — treatment-emergent adverse events (Cough; advanced cancer patients, grade 4 glioma expansion; oral, 50 mg twice daily, all causality any grade): 8%
O=C1Nc2cc3[nH]nc(-c4ccncc4)c3cc2CN1Cc1ccccc1 — patients with constipation (CTCAE v4.03; advanced solid tumour patients; intravenous, 0.9 mg/kg, schedules 1/2): 0%
C[C@]1(O)C[C@@](N)(c2ccc(-c3nc4n(c3-c3ccccc3)COc3ccncc3-4)cc2)C1 — patients with AST increased (human, advanced or metastatic solid tumours; 20 mg once daily, phase I dose escalation): 33.3%

For quick reference, copied from above:
Cc1cc(C)c(CNC(=O)c2cc(Cl)c3c(c2C)O[C@@](C)([C@H]2CC[C@H](N(C)C)CC2)O3)c(=O)[nH]1 — incidence of muscle spasms (relapsed/refractory NHL patients; dose not given, trial, safety set, all TEAEs grade 5): 0%
COc1ccc([C@@H]2CC(=O)c3c(O)cc(O)cc3O2)cc1O — urinary excreted amount, total (male Sprague-Dawley rat, obese; oral, 100 mg/kg of neohesperidin, 0 to 12 h, after β-glucuronidase/sulfatase hydrolysis): 2730 ± 1600 ng
CN(C)C1(CNC(=O)c2ccc3c(c2)CCN3C(=O)c2ccccc2)CCOCC1 — brain concentration (male C57BL/6 mice; intraperitoneal, 50 mg/kg, 30 min): 550 ± 171 ng/g
Cc1cccc(Cn2nc(C3CC3)c3c(NC(=O)c4cnc5cc(OCCN6CCN(C)CC6)ccn45)cccc32)n1 — all-cause adverse events (CTCAE v4.03, item: abdominal pain; PD-1/PD-L1 inhibitor-refractory patients; oral, dose not given, added: pembrolizumab IV every 3 weeks): 21.1%
